Experimental data gathered from unrelated publications.
Each line is one published result; not all experiments were run side by side. “And” joins repeats or separate records; there may be more than shown. Numbers after ± are the reported error.
KLRK1 with MICA: NKG2-D type II integral membrane protein, with MICA (KLRK1, Homo sapiens, UniProt P26718)
Chain of UniProt P26718 (whole entry, looked up): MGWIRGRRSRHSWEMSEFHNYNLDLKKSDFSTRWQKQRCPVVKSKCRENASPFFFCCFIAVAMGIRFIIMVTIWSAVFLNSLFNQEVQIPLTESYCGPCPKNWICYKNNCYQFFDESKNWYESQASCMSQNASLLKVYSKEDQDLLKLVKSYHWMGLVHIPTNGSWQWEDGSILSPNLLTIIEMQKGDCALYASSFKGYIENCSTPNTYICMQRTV
Metallo-beta-lactamase type 2: Metallo-beta-lactamase type 2 (Serratia marcescens, UniProt P52699)
METTL3 with METTL14: N6-adenosine-methyltransferase catalytic subunit, with METTL14 (METTL3, Homo sapiens, UniProt Q86U44)
Chain of UniProt Q86U44 (whole entry, looked up): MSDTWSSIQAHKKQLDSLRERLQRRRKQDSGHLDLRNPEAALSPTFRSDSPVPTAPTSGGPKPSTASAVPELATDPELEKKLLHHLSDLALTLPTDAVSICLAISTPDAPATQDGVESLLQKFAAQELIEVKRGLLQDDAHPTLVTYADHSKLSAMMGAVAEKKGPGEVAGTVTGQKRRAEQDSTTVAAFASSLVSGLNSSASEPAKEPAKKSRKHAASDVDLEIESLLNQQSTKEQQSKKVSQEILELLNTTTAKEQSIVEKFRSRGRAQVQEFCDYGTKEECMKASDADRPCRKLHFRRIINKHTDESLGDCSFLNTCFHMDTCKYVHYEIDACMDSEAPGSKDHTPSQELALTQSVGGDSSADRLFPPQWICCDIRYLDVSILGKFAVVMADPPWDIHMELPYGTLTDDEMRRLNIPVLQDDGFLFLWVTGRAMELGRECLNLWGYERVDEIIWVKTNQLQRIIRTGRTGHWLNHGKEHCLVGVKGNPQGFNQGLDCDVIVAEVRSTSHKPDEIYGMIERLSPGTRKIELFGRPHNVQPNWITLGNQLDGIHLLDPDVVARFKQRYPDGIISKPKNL
Chain of UniProt Q9NUW8 (whole entry, looked up): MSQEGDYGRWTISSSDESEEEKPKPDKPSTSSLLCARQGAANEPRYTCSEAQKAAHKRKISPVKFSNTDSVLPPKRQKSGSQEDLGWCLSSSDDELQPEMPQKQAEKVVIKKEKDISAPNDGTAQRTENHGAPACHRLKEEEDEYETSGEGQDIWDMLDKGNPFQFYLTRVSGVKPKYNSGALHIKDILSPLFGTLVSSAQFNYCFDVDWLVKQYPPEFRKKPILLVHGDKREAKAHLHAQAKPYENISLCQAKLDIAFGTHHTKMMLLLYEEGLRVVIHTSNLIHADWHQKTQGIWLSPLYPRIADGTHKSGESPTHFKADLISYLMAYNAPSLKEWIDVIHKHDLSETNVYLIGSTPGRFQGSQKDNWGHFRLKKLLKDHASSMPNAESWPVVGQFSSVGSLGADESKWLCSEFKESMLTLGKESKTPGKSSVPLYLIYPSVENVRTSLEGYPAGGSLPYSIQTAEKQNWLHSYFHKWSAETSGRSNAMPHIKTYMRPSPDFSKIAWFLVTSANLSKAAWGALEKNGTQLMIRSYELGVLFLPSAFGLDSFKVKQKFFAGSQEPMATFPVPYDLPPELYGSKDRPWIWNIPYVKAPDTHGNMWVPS
Chain of UniProt P30101 (whole entry, looked up): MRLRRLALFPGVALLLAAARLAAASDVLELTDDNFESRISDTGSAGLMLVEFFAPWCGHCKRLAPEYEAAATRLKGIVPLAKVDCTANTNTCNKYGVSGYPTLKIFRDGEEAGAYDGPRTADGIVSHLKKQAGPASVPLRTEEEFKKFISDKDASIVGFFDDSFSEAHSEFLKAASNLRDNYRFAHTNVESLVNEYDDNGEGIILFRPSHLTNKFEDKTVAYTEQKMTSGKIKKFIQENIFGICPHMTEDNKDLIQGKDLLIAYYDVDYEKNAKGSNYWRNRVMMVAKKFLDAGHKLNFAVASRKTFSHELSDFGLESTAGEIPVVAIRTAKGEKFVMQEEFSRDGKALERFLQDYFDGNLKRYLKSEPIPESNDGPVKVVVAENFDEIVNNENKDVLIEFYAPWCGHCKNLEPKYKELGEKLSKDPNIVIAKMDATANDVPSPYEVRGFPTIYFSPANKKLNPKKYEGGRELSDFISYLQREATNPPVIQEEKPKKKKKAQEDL
Chain of UniProt P50391 (whole entry, looked up): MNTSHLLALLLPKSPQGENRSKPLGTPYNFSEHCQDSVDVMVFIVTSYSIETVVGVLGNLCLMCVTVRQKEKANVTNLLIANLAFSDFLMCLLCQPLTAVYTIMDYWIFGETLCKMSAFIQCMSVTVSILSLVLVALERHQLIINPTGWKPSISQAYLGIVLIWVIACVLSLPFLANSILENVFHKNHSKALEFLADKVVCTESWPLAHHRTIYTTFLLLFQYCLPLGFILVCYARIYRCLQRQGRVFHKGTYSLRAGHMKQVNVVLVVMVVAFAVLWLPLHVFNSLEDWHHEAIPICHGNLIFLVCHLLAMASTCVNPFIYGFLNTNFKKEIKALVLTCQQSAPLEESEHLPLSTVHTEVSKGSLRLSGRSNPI
Chain of UniProt P28285 (whole entry, looked up): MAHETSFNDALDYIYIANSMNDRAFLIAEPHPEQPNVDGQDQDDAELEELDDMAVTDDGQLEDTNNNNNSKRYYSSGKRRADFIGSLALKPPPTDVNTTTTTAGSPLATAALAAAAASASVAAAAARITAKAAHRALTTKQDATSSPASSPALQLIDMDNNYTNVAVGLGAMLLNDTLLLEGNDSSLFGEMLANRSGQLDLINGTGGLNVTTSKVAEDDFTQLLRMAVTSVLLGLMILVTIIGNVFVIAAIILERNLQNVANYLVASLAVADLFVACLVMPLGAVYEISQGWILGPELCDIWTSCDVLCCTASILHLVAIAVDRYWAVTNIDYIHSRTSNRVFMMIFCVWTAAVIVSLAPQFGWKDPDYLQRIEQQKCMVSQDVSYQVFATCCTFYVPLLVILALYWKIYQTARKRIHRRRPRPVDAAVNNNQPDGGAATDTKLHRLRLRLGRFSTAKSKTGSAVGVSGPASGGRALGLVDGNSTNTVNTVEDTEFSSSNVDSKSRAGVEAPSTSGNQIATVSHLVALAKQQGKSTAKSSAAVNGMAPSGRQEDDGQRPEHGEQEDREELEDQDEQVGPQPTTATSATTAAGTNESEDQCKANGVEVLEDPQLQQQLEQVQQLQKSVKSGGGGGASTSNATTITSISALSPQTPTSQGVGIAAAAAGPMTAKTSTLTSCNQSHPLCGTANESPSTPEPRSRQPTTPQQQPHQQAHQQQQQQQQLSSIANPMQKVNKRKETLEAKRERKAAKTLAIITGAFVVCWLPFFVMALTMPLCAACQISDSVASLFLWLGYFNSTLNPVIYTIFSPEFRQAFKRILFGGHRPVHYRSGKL
Chain of UniProt Q9HCG7 (whole entry, looked up): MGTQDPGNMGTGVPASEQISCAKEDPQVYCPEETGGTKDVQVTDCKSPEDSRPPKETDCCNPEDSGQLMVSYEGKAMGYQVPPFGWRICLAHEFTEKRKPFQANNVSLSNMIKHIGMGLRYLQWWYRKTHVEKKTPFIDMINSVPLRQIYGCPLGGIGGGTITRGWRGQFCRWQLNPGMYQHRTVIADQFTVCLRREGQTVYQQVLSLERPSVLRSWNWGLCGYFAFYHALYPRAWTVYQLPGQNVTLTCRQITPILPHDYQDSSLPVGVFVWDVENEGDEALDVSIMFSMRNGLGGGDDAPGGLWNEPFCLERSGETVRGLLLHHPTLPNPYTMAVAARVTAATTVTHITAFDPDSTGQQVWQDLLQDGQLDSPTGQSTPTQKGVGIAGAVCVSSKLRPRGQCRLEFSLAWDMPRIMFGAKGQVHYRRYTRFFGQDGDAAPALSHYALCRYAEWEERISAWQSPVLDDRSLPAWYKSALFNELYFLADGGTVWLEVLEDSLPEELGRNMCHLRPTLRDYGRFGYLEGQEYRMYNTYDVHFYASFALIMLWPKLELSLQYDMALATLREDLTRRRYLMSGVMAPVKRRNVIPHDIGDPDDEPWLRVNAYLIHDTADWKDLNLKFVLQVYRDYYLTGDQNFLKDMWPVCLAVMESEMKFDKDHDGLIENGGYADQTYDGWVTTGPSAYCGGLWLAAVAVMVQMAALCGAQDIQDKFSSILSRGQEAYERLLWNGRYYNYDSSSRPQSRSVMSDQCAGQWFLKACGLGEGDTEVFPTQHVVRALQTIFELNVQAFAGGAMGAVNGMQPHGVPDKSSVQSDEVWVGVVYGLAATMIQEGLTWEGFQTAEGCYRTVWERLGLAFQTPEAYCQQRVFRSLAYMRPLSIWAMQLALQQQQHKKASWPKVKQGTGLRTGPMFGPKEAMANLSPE
Chain of UniProt P21554 (whole entry, unmodified, looked up): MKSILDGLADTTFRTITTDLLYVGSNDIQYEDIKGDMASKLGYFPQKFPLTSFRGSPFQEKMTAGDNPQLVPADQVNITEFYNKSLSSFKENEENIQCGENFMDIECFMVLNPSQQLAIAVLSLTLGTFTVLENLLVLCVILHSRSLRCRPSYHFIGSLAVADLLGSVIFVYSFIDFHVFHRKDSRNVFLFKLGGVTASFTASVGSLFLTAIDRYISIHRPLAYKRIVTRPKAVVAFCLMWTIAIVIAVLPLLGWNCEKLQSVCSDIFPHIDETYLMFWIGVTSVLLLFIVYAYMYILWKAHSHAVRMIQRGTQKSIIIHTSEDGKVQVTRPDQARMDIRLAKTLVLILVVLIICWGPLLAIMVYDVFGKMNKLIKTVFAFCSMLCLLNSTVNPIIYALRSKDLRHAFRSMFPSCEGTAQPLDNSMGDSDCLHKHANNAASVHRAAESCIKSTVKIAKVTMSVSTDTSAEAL
Chain of UniProt P40261 (whole entry, looked up): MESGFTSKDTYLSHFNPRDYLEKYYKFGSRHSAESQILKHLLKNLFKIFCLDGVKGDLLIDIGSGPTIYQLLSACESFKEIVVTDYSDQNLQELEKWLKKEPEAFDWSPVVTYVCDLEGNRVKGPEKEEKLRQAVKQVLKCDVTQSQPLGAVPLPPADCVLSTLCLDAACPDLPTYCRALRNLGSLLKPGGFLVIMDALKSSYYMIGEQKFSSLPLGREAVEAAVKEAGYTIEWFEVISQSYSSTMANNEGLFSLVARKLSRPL

SMILES	tested on	assay	system	conditions	how to read	measurement	result
CSc1ccc2c(c1)C(N1CCN(C)CC1)Cc1ccccc1S2 (stereo not drawn)	5-hydroxytryptamine receptor 2A (5-HT1A, Drosophila melanogaster, UniProt P28285)	calcium response, antagonist, calcium imaging	HEK293T	together with: 5-HT near EC50		IC50	27 µM
CCC(=O)C(NC(=O)c1ccccc1-c1ccc(C(F)(F)F)cc1)c1cccc(C(F)(F)F)c1 (stereo not drawn)	KLRK1 with MICA	ligand binding, inhibitor, TR-FRET	HEK293 expressing NKG2D and DAP10	together with: MICA-Alexa647		IC50	3 ± 0.4 µM
CCCCCc1cc(O)c2c(c1)OC(C)(C)C1CCC(C)=CC21 (single isomer, unassigned; (-))	CYP2C19 (Homo sapiens, UniProt P33261)	inhibitor, probe substrate	recombinant microsomes, HEK293	unbound, corrected for fu,inc, together with: omeprazole		IC50	0.15 ± 0.03 µM
CCCCn1nnc(-c2ccccc2NC(=O)[C@H](C)CS)n1	Metallo-beta-lactamase type 2	inhibitor		10 min preincubation, together with: FC5 substrate		IC50	1.49 µM
COc1ccccc1C(NS(=O)(=O)c1cc2ccc(O)nc2cc1Cl)C(=O)N(CC(=O)NCCn1cc(COCCOCCOCCOCCNc2cccc3c2C(=O)N(C2CCC(=O)NC2=O)C3=O)nn1)Cc1cccs1 (mixture of isomers)	OGT (Homo sapiens, UniProt O15294)	enzyme activity, inhibitor, fluorescence				IC50	1.52 µM
Nc1ncnc2c1ncn2[C@@H]1O[C@H](CSCCNC(=O)NCC2CCCCC2)[C@@H](O)[C@H]1O	METTL3 with METTL14	enzyme activity, inhibitor, radiometric		METTL3-METTL14 complex		IC50	> 50 µM
NC[C@@H]1O[C@H](O[C@H]2[C@@H](O)[C@H](O[C@@H]3[C@@H](O)[C@H](N)C[C@H](N)[C@H]3O[C@H]3O[C@H](CN)[C@@H](O)[C@H](O)[C@H]3N)O[C@@H]2Cn2cc(COCCCCCCCCCCCCOCc3cn(C[C@H]4O[C@@H](O[C@@H]5[C@@H](O)[C@H](N)C[C@H](N)[C@H]5O[C@H]5O[C@H](CN)[C@@H](O)[C@H](O)[C@H]5N)[C@H](O)[C@@H]4O[C@H]4O[C@@H](CN)[C@@H](O)[C@H](O)[C@H]4N)nn3)nn2)[C@H](N)[C@@H](O)[C@@H]1O	HIV-1 TAR RNA	ethidium displacement		pH 6.8		IC50	0.074 µM
COc1cc2oc(=O)c3c4cc(OC)c(O)cc4oc3c2cc1O	Genome polyprotein, NS5B polymerase (Hepatitis C virus genotype 1b, UniProt P26663)	NS5B RNA polymerase activity, inhibitor	hepatitis C virus, genotype 1b	together with: poly(rA)/U12		IC50	311 µM
O=C(O)CCc1c(C(=O)O)[nH]c2ccccc12	Metallo-beta-lactamase type 2	inhibitor		10 min preincubation, together with: FC5 fluorogenic substrate		IC50	3.9 µM
CN1C(=O)[C@H](Cc2ccccc2)N(C)C(=O)[C@@H]2[C@H]1CCN2Cc1cc(Cl)cc(Cl)c1	KLRK1 with MICA					IC50	19 µM and ~19 µM
CS(=O)(=O)SCCN	arsenite methyltransferase (Chlamydomonas reinhardtii, UniProt K0BVM7)					IC50	240 µM
C[C@H](CS)C(=O)Nc1ccccc1-c1nnn(C)n1	Metallo-beta-lactamase type 2	enzyme activity, inhibitor, fluorescence		10 min preincubation, together with: FC5		IC50	12.6 µM
CCN(Cc1ccccc1)C(=O)CCc1nc(CN2CCN(C(=O)Cc3ccc(OC)c(OC)c3)CC2)no1	SCN9A (Homo sapiens, UniProt Q15858)	ion current, inhibitor, patch clamp				IC50	0.52 µM
COc1ccc(CNc2nc(N3CCC[C@H]3CO)ncc2C(=O)NNC(=O)c2cnc(N3CCC[C@H]3CO)nc2NCc2ccc(OC)c(Cl)c2)cc1Cl	Salmonella typhimurium		TA1535	250 µg/plate, 48 h		revertant count	25 ± 4
CC[C@H](C)[C@@H]1NC(=O)[C@H](Cc2ccc(O)cc2)NC(=O)[C@H](CC(N)=O)NC(=O)[C@H](CCC(N)=O)NC(=O)[C@@H]2CSSC[C@@H]3NC(=O)[C@H](CCC(=O)O)NC(=O)[C@H](Cc4c[nH]c5ccccc45)NC(=O)[C@@H]4CCCN4C(=O)[C@@H]4CCCN4C(=O)[C@@H]4CCCN4C(=O)[C@H](CCC(N)=O)NC(=O)[C@H](CC(C)C)NC(=O)[C@H](CCC(=O)O)NC(=O)[C@H](Cc4ccccc4)NC(=O)[C@H](CO)NC(=O)[C@H](Cc4ccc(O)cc4)NC(=O)[C@H](CO)NC(=O)CNC(=O)[C@H](CCCNC(=N)N)NC(=O)CNC(=O)[C@H](Cc4ccccc4)NC(=O)[C@H](CSSC[C@@H](C(=O)O)NC(=O)[C@H](CCC(N)=O)NC(=O)[C@H](Cc4ccc(O)cc4)NC3=O)NC(=O)[C@H](CSSC[C@H](NC(=O)[C@H](Cc3ccccc3)NC(=O)[C@H](C)NC(=O)[C@H](CCC(=O)O)NC(=O)[C@@H]3CCC(=O)N3)C(=O)N[C@@H](Cc3ccccc3)C(=O)N[C@@H](CO)C(=O)N[C@@H](CC(=O)O)C(=O)N[C@@H](CCCNC(=N)N)C(=O)N[C@@H](Cc3ccccc3)C(=O)N2)NC(=O)[C@H](CC(=O)O)NC(=O)[C@@H]2CCCN2C(=O)[C@H]([C@@H](C)CC)NC(=O)[C@H](CO)NC(=O)CNC1=O	TDP1 (Homo sapiens, UniProt Q9NUW8)	enzyme activity, inhibitor, FRET		pH 7.4		IC50	> 10 µM
N=C(N)NCCC[C@@H]1NC(=O)[C@H](CCCCNC(=O)CC[C@H](NC(=O)CCOCCOCCOCCOCCNC(=O)CN2CCN(CC(=O)O)CCN(CC(=O)O)CCN(CC(=O)O)CC2)C(=O)NCCCC[C@@H]2NC(=O)[C@@H](Cc3ccccc3)NC(=O)[C@H](CC(=O)O)NC(=O)CNC(=O)[C@H](CCCNC(=N)N)NC2=O)NC(=O)[C@@H](Cc2ccccc2)NC(=O)[C@H](CC(=O)O)NC(=O)CNC1=O [indium-111 labelled]			female athymic nude mice, brain	intravenous, 3 µCi, 0.5 h, U-87 MG glioma xenograft		tissue uptake	0.11 ± 0.02 %ID/g
CCn1nnc(-c2ccccc2NC(=O)[C@H](C)CS)n1	blaNDM-1 (Klebsiella pneumoniae, UniProt C7C422)	enzyme activity, inhibitor, fluorescence		with preincubation		IC50	1.84 µM

SMILES	tested on	assay	system	conditions	how to read	measurement	result
CC(C)C[C@H](NC(=O)[C@@H](N)CCCCN)C(=O)NCC(=O)NCC(=O)NCC(=O)N[C@@H](CCC(N)=O)C(=O)N[C@@H](Cc1ccc(O)cc1)C(=O)NCC(=O)N[C@@H](CCC(=O)O)C(=O)O	HLA class I histocompatibility antigen, A alpha chain, allele A*33:01 (Homo sapiens, UniProt P04439)	peptide binding, competitive radioligand binding		room temperature, HLA-A*3301 allele, together with: radiolabelled probe peptide		IC50	63.6 µM
Nc1ncnc2c1ncn2[C@@H]1O[C@H](CSCCNC(=O)NCCc2ccccc2)[C@@H](O)[C@H]1O	METTL3 with METTL14	enzyme activity, inhibitor, radiometric		METTL3-METTL14 complex		IC50	> 50 µM
CC(C)C[C@H](NC(=O)[C@H](Cc1ccccc1)NC(=O)CNC(=O)CNC(=O)[C@@H](N)Cc1ccc(O)cc1)C(=O)O	rat locus coeruleus neurons	K+ current, agonist				off time constant	24 ± 2 s
O=C1C=CC(=C(c2ccc(O)cc2)c2c(C#Cc3ccc(O)cc3)cccc2-c2ccc(O)cc2)C=C1	PDE4D (Homo sapiens, UniProt Q08499)	enzyme activity, inhibitor, fluorescence				IC50	1.68 µM
CNc1nc(SC)nc2ccccc12	Cytochrome P450 2C9 (CYP2C9, Homo sapiens, UniProt P11712)	inhibitor				IC50	> 50 µM
CCCCCn1cc(C(=O)c2cccc3c2CC(C)(C)C3)c2ccccc21	CNR1 (Homo sapiens, UniProt P21554, F174A)	Gαi1 engagement, agonist, BRET			baseline: wild type	change in Emax	32%
CC(=O)N[C@@H](CCCNC(=N)N)C(=O)N[C@@H](Cc1ccc(O)cc1)C(=O)N[C@H]1CCCNC(=N)NC(=O)NCCCCNC(=O)[C@H](Cc2ccc(O)cc2)NC(=O)[C@H](CCCNC(=N)N)NC(=O)[C@H](CC(C)C)NC1=O	NPY4R (Homo sapiens, UniProt P50391)	β-arrestin 1 recruitment, antagonist	HEK293T	together with: 3 nM human pancreatic polypeptide		IC50	5.39 ± 1.63 µM
CC[N+](CC)(CC)CC	Potassium channel protein kcv, L70A in two subunits (A250R, Paramecium bursaria Chlorella virus 1, UniProt Q84568, L70A)					IC50	1300 ± 200 µM
CN[C@](C)(C[18F])C(=O)O	MDA-MB-468 tumour model		host not given, lung	2 h, tumour-bearing		tracer uptake	1 %ID/g
CC[C@H](C)[C@@H]1NC(=O)[C@H](CC(C)C)NC(=O)[C@H]([C@@H](C)CC)NC(=O)[C@H](CC(C)C)NC(=O)[C@H](CCCNC(=N)N)NC(=O)[C@H](CCCNC(=N)N)NC(=O)CNC(=O)[C@H](CO)NC(=O)[C@H](CC(C)C)NC(=O)[C@H]([C@@H](C)CC)NC(=O)[C@H]([C@@H](C)CC)NC(=O)[C@H]([C@@H](C)CC)NC(=O)[C@H](CC(C)C)NC(=O)[C@H](CCC(N)=O)NC(=O)[C@H](CCCCN)NC(=O)[C@@H](Cc2ccc(O)cc2)NC(=O)CSC[C@@H](C(=O)NCC(N)=O)NC1=O	NNMT (Homo sapiens, UniProt P40261)	enzyme activity, inhibitor, mass spectrometry				IC50	0.241 µM
CCn1nc(-c2cccnc2)nc2c(=O)n(C)c(=O)nc1-2	TPR (Trypanosoma brucei brucei, UniProt P39051)	inhibitor, DTNB-coupled colourimetric		together with: substrate at Km		IC50	> 100 µM
CC[C@H](C)[C@H](NC(=O)[C@H](CC(C)C)NC(=O)CNC(=O)[C@@H]1CCCN1C(=O)[C@H](CC(N)=O)NC(=O)[C@H](C)NC(=O)[C@@H]1CCCN1C(=O)[C@H](C)NC(=O)[C@H](C)NC(=O)[C@@H]1CCCN1C(=O)[C@H](C)NC(=O)[C@@H](N)Cc1c[nH]cn1)C(=O)N[C@H](C(=O)NCC(=O)N[C@@H](C)C(=O)N[C@@H](CC(C)C)C(=O)N[C@@H](C)C(=O)NCC(=O)N[C@@H](CO)C(=O)N[C@H](C(=O)O)[C@@H](C)O)[C@@H](C)CC	HLA-DRA/HLA-DRB3 (Homo sapiens, UniProt P01903+P79483)	binding, competition binding	purified HLA-DR	48 h, together with: radiolabelled probe peptide 0.1-1 nM		IC50	> 5 µM
N=C(N)NCCC[C@@H]1NC(=O)[C@H](CCCCNC(=O)CCOCCOCCOCCOCCNC(=O)CC[C@H](NC(=O)CCOCCOCCOCCOCCNC(=O)CC[C@H](NC(=O)CN2CCN(CC(=O)O)CCN(CC(=O)O)CCN(CC(=O)O)CC2)C(=O)NCCOCCOCCOCCOCCC(=O)N[C@@H](CCC(=O)NCCOCCOCCOCCOCCC(=O)NCCCC[C@@H]2NC(=O)[C@@H](Cc3ccccc3)NC(=O)[C@H](CC(=O)O)NC(=O)CNC(=O)[C@H](CCCNC(=N)N)NC2=O)C(=O)NCCOCCOCCOCCOCCC(=O)NCCCC[C@@H]2NC(=O)[C@@H](Cc3ccccc3)NC(=O)[C@H](CC(=O)O)NC(=O)CNC(=O)[C@H](CCCNC(=N)N)NC2=O)C(=O)NCCOCCOCCOCCOCCC(=O)NCCCC[C@@H]2NC(=O)[C@@H](Cc3ccccc3)NC(=O)[C@H](CC(=O)O)NC(=O)CNC(=O)[C@H](CCCNC(=N)N)NC2=O)NC(=O)[C@@H](Cc2ccccc2)NC(=O)[C@H](CC(=O)O)NC(=O)CNC1=O [indium-111 labelled]			female athymic nude mice, brain	intravenous, 3 µCi, 4 h, U-87 MG glioma xenograft		tissue uptake	0.12 ± 0.01 %ID/g
CCOC(=O)C1CN1S(=O)(=O)c1ccc(C)cc1 (stereo not drawn)	PDIA3 (Homo sapiens, UniProt P30101)	enzyme activity, inhibitor, absorbance		pH 7.6		IC50	23 µM
OC[C@@H]1[C@@H](O)[C@H](O)[C@@H](O)[C@@H]2N[C@H]12	Beta-glucosidase (GBA2, Homo sapiens, UniProt Q9HCG7)	enzyme activity, inhibitor		pH 5.8, with preincubation		IC50	0.014 µM
CC(C)C[C@H](NC(=O)[C@H](C)NC(=O)[C@H](Cc1ccc(O)cc1)NC(=O)[C@H](CC(N)=O)NC(=O)[C@H](CCC(=O)O)NC(=O)[C@H](CC(=O)O)NC(=O)[C@H](CC(N)=O)NC(=O)[C@H](C)NC(=O)[C@H](C)N)C(=O)N[C@@H](C)C(=O)N[C@@H](C)C(=O)O	RING finger and CHY zinc finger domain-containing protein 1 (RCHY1, Homo sapiens, UniProt Q96PM5)	binding				IC50	~0.47 µM

Excerpt of the above:
SMILES	tested on	assay	system	conditions	how to read	measurement	result
CCn1nnc(-c2ccccc2NC(=O)[C@H](C)CS)n1	blaNDM-1 (Klebsiella pneumoniae, UniProt C7C422)	enzyme activity, inhibitor, fluorescence		with preincubation		IC50	1.84 µM
CCOC(=O)C1CN1S(=O)(=O)c1ccc(C)cc1 (stereo not drawn)	PDIA3 (Homo sapiens, UniProt P30101)	enzyme activity, inhibitor, absorbance		pH 7.6		IC50	23 µM
CCC(=O)C(NC(=O)c1ccccc1-c1ccc(C(F)(F)F)cc1)c1cccc(C(F)(F)F)c1 (stereo not drawn)	KLRK1 with MICA	ligand binding, inhibitor, TR-FRET	HEK293 expressing NKG2D and DAP10	together with: MICA-Alexa647		IC50	3 ± 0.4 µM
